Values quoted from earlier work, collected from citations in different studies.
Lines come from different studies, so protocols differ. ± gives the spread as reported.

C=C(C)C[C@@H](O)COc1cc2c(cc1C1(c3cc4c(cc3OC[C@H](O)CC(=C)C)OCO4)C(=O)Nc3cc(F)ccc31)OCO2 — MIC of fluconazole (Candida albicans; fluconazole-resistant, Cdr1 upregulated; 50 µM, together with: fluconazole): 64 µg/mL
O=C(NCCN1CCCC1)c1cc(-c2ccc(CN3CCOCC3)cc2)nc2ccc(F)cc12 — IC50 fold increase (Plasmodium falciparum; 7G8 S474R mutant; baseline: parental strain): 35 fold
Nc1nc(O)c2ncn(COC(CO)CO)c2n1 — EC50 (human cytomegalovirus; viral replication; UL97 M460V mutant): 13.8 µM
Cc1c(CN(C)C(=O)/C=C/c2cnc3c(c2)CCC(=O)N3)oc2ccccc12 — post-antibiotic effect (Staphylococcus aureus; MRSA 43300; 32 x MIC, 4 h, 35 °C): 0.2 ± 0.1 h
Cn1c(Cn2ccc(C(F)(F)F)c(Oc3cc(Cl)cc(C#N)c3)c2=O)n[nH]c1=O — EC95 (HIV-1; viral replication; Y181C mutant; 50% human serum): 0.027 µM
CO/N=C(\C(=O)N[C@@H]1C(=O)N2C(C(=O)O)=C(COC(C)=O)CS[C@H]12)c1csc(N)n1 — MIC (Streptococcus pneumoniae; E-test; strain 700678 serotype 19A resistant): 1 µg/mL
CN[C@H](CC(C)C)C(=O)N[C@H]1C(=O)N[C@@H](CC(N)=O)C(=O)N[C@H]2C(=O)N[C@H]3C(=O)N[C@H](C(=O)N[C@H](C(=O)O)c4cc(O)cc(O)c4-c4cc3ccc4O)[C@H](O)c3ccc(c(Cl)c3)Oc3cc2cc(c3O[C@@H]2O[C@H](CO)[C@@H](O)[C@H](O)[C@H]2O[C@H]2C[C@](C)(N)[C@H](O)[C@H](C)O2)Oc2ccc(cc2Cl)[C@H]1O — MIC (Enterobacter aerogenes; ATCC 35029): > 128 µg/mL
N/C(CC(O)c1cc2c(F)cc(F)cc2c2cc(C(F)(F)F)ccc12)=N\c1ccc(F)cc1 (stereo not shown) — IC50 (Plasmodium falciparum; parasite growth; Dd2 PfcytB I22L (ELQ-300-resistant)): 0.014 µM
COc1ccc(-c2ccn(CC[C@](C)(C(=O)NO)S(C)(=O)=O)c(=O)c2)c(F)c1 — MIC (Pseudomonas aeruginosa; efflux-pump mutant): 0.018 µM
CCN(CC)CCO[C@H]1CC[C@@]2(C)C(=CC[C@@H]3[C@@H]2CC[C@]2(C)C(=O)CC[C@@H]32)C1 — EC50 (dengue virus; viral replication; A549 replicon cells): 6.2 µM
CC1(C)S[C@@H]2[C@H](NC(=O)Cc3ccccc3)C(=O)N2[C@H]1C(=O)O — MIC (Streptococcus pneumoniae; E-test; strain 700676 serotype 14 resistant): 0.03 µg/mL
COc1cccc(N2CCN(C3=Nc4c(F)cccc4[C@H](CC(=O)O)N3c3cc(C(F)(F)F)ccc3OC)CC2)c1 — EC50 (human cytomegalovirus; viral replication; UL56 C325Y mutant): 25 µM
COc1ccc(OC)c(C=CC(=O)NC2CCC(CN3CCC(c4c[nH]c5ccccc45)CC3)CC2)c1 (stereo not shown) — IC50 (Plasmodium falciparum; whole cell extended time; 3D7; 72 h): 0.65 µM
CCC[C@@H]1C[C@@H](C(=O)N[C@@H]([C@H]2O[C@H](SC)[C@H](O)[C@@H](O)[C@H]2O)[C@H](C)Cl)N(C)C1 — MIC (Streptococcus pneumoniae; E-test; strain 700678 serotype 19A resistant): > 32 µg/mL
Nc1ccn(C[C@@H](CO)OCP(=O)(O)O)c(=O)n1 — EC50 (human cytomegalovirus; viral replication; UL54 A987G resistant): 3.4 µM
COc1ccc(C[C@H]2NC[C@H](O)[C@H]2OC(C)=O)cc1 — IC50 (Giardia): 18.5 µM
CN[C@H](CC(C)C)C(=O)N[C@H]1C(=O)N[C@@H](CC(N)=O)C(=O)N[C@H]2C(=O)N[C@H]3C(=O)N[C@H](C(=O)N[C@H](C(=O)O)c4cc(O)cc(O)c4-c4cc3ccc4O)[C@H](O)c3ccc(c(Cl)c3)Oc3cc2cc(c3O[C@@H]2O[C@H](CO)[C@@H](O)[C@H](O)[C@H]2O[C@H]2C[C@](C)(N)[C@H](O)[C@H](C)O2)Oc2ccc(cc2Cl)[C@H]1O — MBEC (Staphylococcus aureus; MRSA 20, biofilm): > 2000 µM
CC(C)Nc1nc2cc(Cl)c(Cl)cc2n1[C@H]1O[C@@H](CO)[C@H](O)[C@@H]1O — EC50 (human cytomegalovirus; viral replication; UL97 H411Y mutant): 2.1 µM
O=C(N[C@H](CO)[C@H](O)c1ccc([N+](=O)[O-])cc1)C(Cl)Cl — MIC (Streptococcus pneumoniae; E-test; strain 700678 serotype 19A resistant): 32 µg/mL
Nc1nc(O)c2ncn(COC(CO)CO)c2n1 — IC50 (human cytomegalovirus; viral replication; 10 d): 3 µM
C/C(=C\C(=O)OCCCCCCCCC(=O)O)C[C@@H]1OC[C@H](C[C@@H]2O[C@H]2[C@@H](C)[C@H](C)O)[C@@H](O)[C@H]1O — MIC (Staphylococcus aureus; MRSA high-level resistant): > 1020 µM
CC1(C)NC(=O)N(c2ccc(F)c(C(F)(F)F)c2)C1=O — ED50 (Schistosoma mansoni; juvenile, infected mice; oral, single dose): 140 mg/kg

For quick reference, copied from above:
CCC[C@@H]1C[C@@H](C(=O)N[C@@H]([C@H]2O[C@H](SC)[C@H](O)[C@@H](O)[C@H]2O)[C@H](C)Cl)N(C)C1 — MIC (Streptococcus pneumoniae; E-test; strain 700678 serotype 19A resistant): > 32 µg/mL
Nc1ccn(C[C@@H](CO)OCP(=O)(O)O)c(=O)n1 — EC50 (human cytomegalovirus; viral replication; UL54 A987G resistant): 3.4 µM
COc1ccc(C[C@H]2NC[C@H](O)[C@H]2OC(C)=O)cc1 — IC50 (Giardia): 18.5 µM
